Measured values of several laboratories.
± gives the spread as reported.
CHRM1: Muscarinic acetylcholine receptor M1 (CHRM1, Homo sapiens, UniProt P11229)
Chain of UniProt P11229 (whole entry, looked up): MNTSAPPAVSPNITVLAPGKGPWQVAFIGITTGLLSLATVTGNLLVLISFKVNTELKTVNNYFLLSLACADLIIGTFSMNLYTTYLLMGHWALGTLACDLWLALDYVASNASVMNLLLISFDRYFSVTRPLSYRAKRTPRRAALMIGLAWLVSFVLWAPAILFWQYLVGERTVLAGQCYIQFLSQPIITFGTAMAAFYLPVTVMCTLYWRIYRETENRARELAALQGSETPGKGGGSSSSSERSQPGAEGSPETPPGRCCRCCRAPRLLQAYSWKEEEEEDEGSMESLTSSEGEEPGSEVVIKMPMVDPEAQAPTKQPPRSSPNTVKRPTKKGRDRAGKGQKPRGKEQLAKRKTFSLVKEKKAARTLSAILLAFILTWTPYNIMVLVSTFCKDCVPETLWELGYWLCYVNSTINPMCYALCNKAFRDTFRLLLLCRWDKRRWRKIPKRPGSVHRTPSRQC
Chain of UniProt Q8K0E8 (whole entry, looked up): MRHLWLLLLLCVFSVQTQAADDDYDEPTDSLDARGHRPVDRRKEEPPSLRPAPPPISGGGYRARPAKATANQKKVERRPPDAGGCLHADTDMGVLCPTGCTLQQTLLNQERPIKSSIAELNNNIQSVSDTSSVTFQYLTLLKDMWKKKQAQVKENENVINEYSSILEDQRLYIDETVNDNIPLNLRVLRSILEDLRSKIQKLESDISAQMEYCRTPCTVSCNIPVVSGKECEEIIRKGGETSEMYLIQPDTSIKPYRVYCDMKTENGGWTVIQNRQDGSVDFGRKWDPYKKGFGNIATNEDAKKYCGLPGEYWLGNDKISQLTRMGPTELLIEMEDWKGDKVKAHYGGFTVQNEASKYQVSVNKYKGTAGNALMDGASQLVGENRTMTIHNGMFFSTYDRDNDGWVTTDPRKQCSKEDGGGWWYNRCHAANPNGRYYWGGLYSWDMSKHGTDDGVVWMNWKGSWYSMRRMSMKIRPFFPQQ
Chain of UniProt P22309 (whole entry, looked up): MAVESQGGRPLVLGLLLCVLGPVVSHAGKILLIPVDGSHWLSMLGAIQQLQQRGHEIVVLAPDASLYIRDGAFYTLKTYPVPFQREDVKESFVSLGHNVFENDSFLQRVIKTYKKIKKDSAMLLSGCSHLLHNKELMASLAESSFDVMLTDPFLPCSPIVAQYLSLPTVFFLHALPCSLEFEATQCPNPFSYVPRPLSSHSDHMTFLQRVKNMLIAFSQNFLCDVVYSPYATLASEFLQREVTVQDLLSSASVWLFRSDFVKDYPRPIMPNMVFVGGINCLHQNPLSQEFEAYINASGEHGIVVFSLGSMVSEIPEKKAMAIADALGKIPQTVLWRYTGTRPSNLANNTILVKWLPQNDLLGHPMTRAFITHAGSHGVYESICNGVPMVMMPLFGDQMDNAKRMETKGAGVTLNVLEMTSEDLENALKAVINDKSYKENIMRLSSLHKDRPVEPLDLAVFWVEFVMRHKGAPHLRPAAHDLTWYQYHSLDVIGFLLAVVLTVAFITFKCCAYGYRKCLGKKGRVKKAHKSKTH
Chain of UniProt P00784 (whole entry, looked up): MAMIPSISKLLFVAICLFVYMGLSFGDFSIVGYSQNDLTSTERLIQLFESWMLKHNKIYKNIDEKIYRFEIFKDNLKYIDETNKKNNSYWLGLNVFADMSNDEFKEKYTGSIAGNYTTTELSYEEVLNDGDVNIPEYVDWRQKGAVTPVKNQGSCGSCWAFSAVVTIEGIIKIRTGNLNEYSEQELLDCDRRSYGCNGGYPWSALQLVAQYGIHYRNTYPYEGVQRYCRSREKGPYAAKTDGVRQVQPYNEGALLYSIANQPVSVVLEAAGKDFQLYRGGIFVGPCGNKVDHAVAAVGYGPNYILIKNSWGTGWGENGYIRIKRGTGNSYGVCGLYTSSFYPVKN
Chain of UniProt Q8VCM7 (whole entry, looked up): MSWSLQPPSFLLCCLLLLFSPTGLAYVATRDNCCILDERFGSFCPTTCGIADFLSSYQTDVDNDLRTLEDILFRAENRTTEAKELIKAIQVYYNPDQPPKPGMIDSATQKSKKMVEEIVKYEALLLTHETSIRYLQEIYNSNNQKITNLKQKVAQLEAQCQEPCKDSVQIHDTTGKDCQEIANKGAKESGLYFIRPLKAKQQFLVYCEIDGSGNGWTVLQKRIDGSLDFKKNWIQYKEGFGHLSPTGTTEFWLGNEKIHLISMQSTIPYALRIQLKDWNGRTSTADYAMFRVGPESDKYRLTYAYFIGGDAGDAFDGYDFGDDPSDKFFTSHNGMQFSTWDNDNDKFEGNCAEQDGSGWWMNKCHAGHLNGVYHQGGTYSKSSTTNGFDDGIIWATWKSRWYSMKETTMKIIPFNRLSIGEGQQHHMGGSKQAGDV
Chain of UniProt Q07820 (whole entry, looked up): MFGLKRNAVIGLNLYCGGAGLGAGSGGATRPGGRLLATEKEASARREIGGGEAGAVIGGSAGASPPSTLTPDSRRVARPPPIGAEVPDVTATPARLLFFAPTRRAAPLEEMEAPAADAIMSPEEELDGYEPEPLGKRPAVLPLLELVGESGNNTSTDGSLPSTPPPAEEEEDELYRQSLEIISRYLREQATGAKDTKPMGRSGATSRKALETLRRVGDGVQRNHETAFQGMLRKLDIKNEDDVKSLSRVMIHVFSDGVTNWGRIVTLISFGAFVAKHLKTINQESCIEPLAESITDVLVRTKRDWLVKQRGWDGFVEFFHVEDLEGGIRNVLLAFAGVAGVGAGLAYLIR
Chain of UniProt P35503 (whole entry, looked up): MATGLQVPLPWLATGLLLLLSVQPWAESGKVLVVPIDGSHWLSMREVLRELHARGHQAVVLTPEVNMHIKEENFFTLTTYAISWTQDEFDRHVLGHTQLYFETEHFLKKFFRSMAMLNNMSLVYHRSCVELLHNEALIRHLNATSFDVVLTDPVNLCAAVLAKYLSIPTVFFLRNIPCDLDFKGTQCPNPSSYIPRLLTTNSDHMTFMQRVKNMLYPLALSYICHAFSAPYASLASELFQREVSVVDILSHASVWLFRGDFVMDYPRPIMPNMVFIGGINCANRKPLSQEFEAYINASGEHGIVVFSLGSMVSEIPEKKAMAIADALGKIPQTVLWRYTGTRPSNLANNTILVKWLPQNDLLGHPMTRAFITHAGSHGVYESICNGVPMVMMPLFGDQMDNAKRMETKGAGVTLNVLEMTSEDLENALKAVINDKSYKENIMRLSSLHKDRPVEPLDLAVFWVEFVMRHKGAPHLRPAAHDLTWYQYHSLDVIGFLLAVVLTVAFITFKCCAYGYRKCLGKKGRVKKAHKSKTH
Chain of UniProt E9PV24 (whole entry, looked up): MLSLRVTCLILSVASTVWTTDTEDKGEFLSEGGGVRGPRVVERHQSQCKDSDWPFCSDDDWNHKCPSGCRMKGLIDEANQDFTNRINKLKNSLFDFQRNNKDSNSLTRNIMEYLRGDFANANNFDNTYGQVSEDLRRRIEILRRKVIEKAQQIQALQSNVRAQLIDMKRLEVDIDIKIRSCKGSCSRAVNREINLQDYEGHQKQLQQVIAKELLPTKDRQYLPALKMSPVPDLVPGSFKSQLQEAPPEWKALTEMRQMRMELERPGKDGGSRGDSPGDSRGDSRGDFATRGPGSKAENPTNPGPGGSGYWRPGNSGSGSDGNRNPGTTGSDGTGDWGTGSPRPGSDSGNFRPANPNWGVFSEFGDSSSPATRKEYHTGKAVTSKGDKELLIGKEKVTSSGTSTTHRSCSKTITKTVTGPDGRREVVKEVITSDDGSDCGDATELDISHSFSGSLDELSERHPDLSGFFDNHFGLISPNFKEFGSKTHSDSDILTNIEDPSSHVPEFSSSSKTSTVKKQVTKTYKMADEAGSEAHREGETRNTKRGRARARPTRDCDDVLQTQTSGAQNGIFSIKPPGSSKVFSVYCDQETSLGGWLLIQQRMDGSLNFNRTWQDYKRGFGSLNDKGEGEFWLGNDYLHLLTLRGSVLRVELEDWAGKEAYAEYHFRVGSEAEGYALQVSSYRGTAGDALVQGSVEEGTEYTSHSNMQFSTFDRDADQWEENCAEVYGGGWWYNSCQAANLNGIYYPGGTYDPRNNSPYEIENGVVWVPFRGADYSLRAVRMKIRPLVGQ
Chain of UniProt Q9EPX4 (whole entry, looked up): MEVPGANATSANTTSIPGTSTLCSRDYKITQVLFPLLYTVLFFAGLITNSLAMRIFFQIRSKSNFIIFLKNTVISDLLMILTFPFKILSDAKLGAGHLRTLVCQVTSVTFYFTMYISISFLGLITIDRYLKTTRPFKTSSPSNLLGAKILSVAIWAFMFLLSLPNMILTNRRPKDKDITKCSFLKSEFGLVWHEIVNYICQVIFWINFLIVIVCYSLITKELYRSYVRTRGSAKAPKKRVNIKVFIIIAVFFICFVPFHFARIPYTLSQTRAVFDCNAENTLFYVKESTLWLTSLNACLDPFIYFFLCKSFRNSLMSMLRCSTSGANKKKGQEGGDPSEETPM
Chain of UniProt P08173 (whole entry, looked up): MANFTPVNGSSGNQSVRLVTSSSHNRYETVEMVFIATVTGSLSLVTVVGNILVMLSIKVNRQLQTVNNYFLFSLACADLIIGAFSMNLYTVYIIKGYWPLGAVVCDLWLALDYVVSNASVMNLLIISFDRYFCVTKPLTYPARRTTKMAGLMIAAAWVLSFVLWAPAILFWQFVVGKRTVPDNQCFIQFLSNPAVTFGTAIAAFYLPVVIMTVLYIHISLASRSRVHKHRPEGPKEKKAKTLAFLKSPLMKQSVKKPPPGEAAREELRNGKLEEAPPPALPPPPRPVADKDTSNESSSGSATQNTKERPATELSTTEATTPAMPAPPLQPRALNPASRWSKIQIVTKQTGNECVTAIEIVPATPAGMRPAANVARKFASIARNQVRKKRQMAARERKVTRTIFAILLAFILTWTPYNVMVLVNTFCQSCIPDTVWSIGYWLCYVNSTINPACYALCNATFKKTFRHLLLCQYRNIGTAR

CCCNC(C)C(=O)Nc1c(C)csc1C(=O)OC (stereo not drawn) — capacity factor k′ (Sodium channel protein type 10 subunit alpha (SCN10A, Homo sapiens, UniProt Q9Y5Y9); cell membrane chromatography; higher = stronger binding): 51
CCN(c1ccc(Cl)cc1)S(=O)(=O)C1CC2OC1C(c1ccc(O)cc1)=C2c1ccc(O)cc1 (stereo not drawn) — efficacy (Estrogen receptor beta (ESR2, Homo sapiens, UniProt Q92731); reporter gene, antagonist; HepG2; added: estradiol 10 nM; baseline: E2 response, negative is inverse agonism): -12 ± 1%
CCOc1ccccc1-c1nc(Nc2nc3ccccc3o2)ncc1C#N — maximal response (Metabotropic glutamate receptor 5 (Grm5, Rattus norvegicus, UniProt P31424); calcium mobilization, negative allosteric modulator; added: glutamate EC80; baseline: maximal glutamate response): 4.5 ± 0.9%
COC(=O)[C@H](c1ccccc1Cl)N1CCc2sccc2C1 — receptor occupancy (P2Y purinoceptor 12 (P2ry12, Rattus norvegicus, UniProt Q9EPX4); rat; oral, 10 mg/kg): 19.7 ± 3.1%
CS(=O)(=O)c1ccc(COc2ccccc2-c2cc(=O)n(C3CCCCC3O)cn2)cc1 (stereo not drawn) — ΔpEC50 of ACh (CHRM1; positive allosteric modulator, IP1 accumulation; CHO-M1 cells; 10 µM, 60 min, 37 °C, added: ACh; baseline: ACh alone, higher = stronger potentiation): 1.27 ± 0.17 log units
CCOC(=O)c1cnn(-c2ccc(NC(=O)C(Cl)=C(Cl)Cl)cc2)c1C(F)(F)F — peak current (Short transient receptor potential channel 3 (TRPC3, Homo sapiens, UniProt Q13507); TRPC3 receptor-operated current, inhibitor, patch clamp; HEK293 transiently expressing TRPC3; 3 µM, added: carbachol maximal activation): -2.27 ± 0.96 pA/pF
CN(C)C(=O)c1ccc(COc2ccccc2-c2cc(=O)n(C3CCCCC3O)cn2)cc1 (stereo not drawn) — change in baseline activity (CHRM1; allosteric agonist, IP1 accumulation; CHO-M1 cells; 1 µM, unit not given; baseline: maximum ACh response): 21.5 ± 2.3
O=C(O)[C@H]1O[C@@H](Oc2ccc(-c3cc(=O)c4ccccc4o3)cc2)[C@H](O)[C@@H](O)[C@@H]1O — Vmax (UDP-glucuronosyltransferase 1A1 (UGT1A1, Homo sapiens, UniProt P22309); glucuronidation, substrate, Supersomes): 0.85 ± 0.01 nmol/mg/min
CC[C@H](C)[C@H](NC(=O)[C@H](CCC(=O)O)NC(=O)[C@@H]1CCCN1C(=O)[C@H](CCCNC(=N)N)NC(C)=O)C(=O)N[C@@H](Cc1c[nH]c2ccccc12)C(=O)N[C@@H](Cc1ccc(O)cc1)C(=O)N[C@@H](C)C(=O)N[C@@H](CCC(N)=O)C(=O)NCC(=O)N[C@@H](CC(C)C)C(=O)N[C@@H](CCCCN)C(=O)N[C@@H](CCCNC(=N)N)C(=O)N[C@@H](Cc1ccccc1)C(=O)NCC(=O)N[C@@H](CC(=O)O)C(=O)N[C@@H](CCC(=O)O)C(=O)N[C@@H](Cc1ccccc1)C(=O)N[C@@H](CC(N)=O)C(=O)N[C@@H](C)C(=O)N[C@@H](Cc1ccc(O)cc1)C(=O)N[C@@H](Cc1ccc(O)cc1)C(=O)N[C@@H](C)C(=O)N[C@@H](CCCNC(=N)N)C(N)=O — highest concentration without competition (Induced myeloid leukemia cell differentiation protein Mcl-1 (MCL1, Homo sapiens, UniProt Q07820); binding, fluorescence polarization competition; 500 nM protein, added: 10 nM fluorescent Hrk-BH3; no competition up to this value): > 10 µM
O=C(Nc1nc2cccnc2s1)C1CCCC1 — activity (Muscarinic acetylcholine receptor M4 (CHRM4, Homo sapiens, UniProt P08173); calcium mobilization, positive allosteric modulator; CHO expressing hM4 and Gqi5; concentration not given, added: acetylcholine EC20): inactive
GGSHPSRPRAG (99mTc-labelled) — uptake (Fga/Fgb/Fgg (Mus musculus, UniProt E9PV24+Q8K0E8+Q8VCM7); peptide, heparinized mouse, carotid thrombosis, contralateral clot-free carotid; 3 µCi/g, 2 h): 1.1 ± 0.5 %ID/g
CCCCn1cc(-c2ccc(COc3ccccc3-c3cc(=O)n(C4CCCCC4O)cn3)cc2)cn1 (stereo not drawn) — change in baseline activity (CHRM1; allosteric agonist, IP1 accumulation; CHO-M1 cells; 10 µM, unit not given; baseline: maximum ACh response): 68.5 ± 2.7
O=c1c(O)c(-c2ccc(O)c(O)c2)oc2cc(O)cc(O)c12 — remaining activity (UDP-glucuronosyltransferase 1A3 (UGT1A3, Homo sapiens, UniProt P35503); enzyme activity, inhibitor; 50 µM): < 30.8%
Cn1cc(-c2ccc(COc3ccccc3-c3cc(=O)n(C4CCCCC4O)cn3)cc2)cn1 (stereo not drawn) — change in baseline activity (CHRM1; allosteric agonist, IP1 accumulation; CHO-M1 cells; 1 µM, unit not given; baseline: maximum ACh response): 55.1 ± 2.4
NC(=O)CN[C@H]1CCCNC1 — selectivity ratio (Papain (Carica papaya, UniProt P00784); inhibitor; baseline: Ki papain over Ki IdeS): ≥ 16 fold

Excerpt of the above:
O=c1c(O)c(-c2ccc(O)c(O)c2)oc2cc(O)cc(O)c12 — remaining activity (UDP-glucuronosyltransferase 1A3 (UGT1A3, Homo sapiens, UniProt P35503); enzyme activity, inhibitor; 50 µM): < 30.8%
